Assay results from different studies.
Each line is one published result; not all experiments were run side by side.
Target: Activin receptor type-2A (ACVR2A, Homo sapiens, UniProt P27037)

The remaining binding of `COc1cc(Nc2nccc(-c3cnn4nc(OC)ccc34)n2)cc(C(F)(F)F)c1` is reported as 76% (binding, competition with immobilised ligand; 1 µM).
`Nc1ncc2c(n1)-c1c([nH]c3ccc(C4=CCOCC4)cc13)CCC2` gave a remaining binding of 98% (binding, competition with immobilised ligand; 1 µM).
For `Cc1ccc(-c2c(/C=C(\C#N)C(=O)NC(C)C)n(CCCO)c3ncnc(N)c23)cc1`, the remaining binding was 93% (cell-free assay, competition with immobilised ligand; 1 µM).
`CN1CC[C@@H](COc2cnc(C#N)cc2-c2ccn3nc(NC(=O)C4CC4)cc3c2)C1` gave an inhibition of -4% (enzyme activity, inhibitor; 1 µM).
The remaining binding of `CNC1C[S+]2CC[S+]3CC[S+](C1)[Ru-4]321([N]=C=S)[n]2c3ccc(OC)cc3c3c4c(c5cc(F)c[n+]1c5c32)C(=O)NC4=O` (stereo not shown) is reported as 100% (KinomeScan; 0.1 µM; reference: untreated).
Under “activity vs control”, `CNC(=O)C[C@H](Cc1ccc(C#N)cc1)NC(=O)c1cc(-c2ccc(CN[C@H](C)c3ccc(C)cc3)o2)ccc1Cl` is recorded as 107% (enzyme activity, inhibitor; 1 µM).
`COc1c(Cl)cccc1Nc1c(-c2ccncc2C#C[C@@]2(C)CCCN2C(=O)/C=C/CN(C)C)[nH]c2c1C(=O)NCC2` has a remaining binding of 100% (cell-free assay, competition with immobilised ligand; 3 µM).
`CNC(=O)C1CCN(c2cc(C)c(F)cc2NC(=O)c2ccc(-c3cc(O)ccc3C)c(C)c2)CC1` has a remaining binding of 100% (binding, competition with immobilised ligand; 1 µM).
`C=CC(=O)N1Cc2nc(-c3cc(-c4cc(Cl)cnc4Cl)c(F)cc3F)n(-c3ccncn3)c2C1` has an inhibition of -1% (cell-free assay; 1 µM).
With `C=CC(=O)N1CCCC(n2c(=O)c3ncccc3n(Cc3ccc(Oc4ccccc4)cc3)c2=O)C1` (stereo not shown) the remaining binding was 75% (cell-free assay, competition with immobilised ligand; 1 µM).
`O=C(Cc1ccc(OCc2ccccc2)cc1)NC1(C(=O)O)CCN(C(=O)c2ccc(-c3cccc(Cl)c3)cc2)CC1`: “activity vs control” 95% (enzyme activity, inhibitor; 10 µM).
`C=CC(=O)N1CCc2ccc(-n3c(=O)ccc4cnc5ccc(-c6cnn(C)c6)cc5c43)cc21` has a remaining binding of 81% (KINOMEscan; 1 µM; reference: DMSO control).
The remaining binding of `Cc1cnc2nc1Nc1cccc(c1)COC/C=C/COCc1cc(ccc1OCCN1CCOCC1)N2` is reported as 93% (binding; 0.1 µM).
The inhibition of `CN1CCN(Cc2ccc(-c3ccc(CO[C@H]4CCC[C@@H]4NC(=O)c4cc(-c5cnn(C)c5)cnc4N)cc3)cc2)CC1` is reported as 4% (enzyme activity, inhibitor; 0.1 µM).
`CCN1CCN(Cc2ccc(C(=O)Nc3ccc(C)c(NCc4cnc5[nH]ccc5c4OC)c3)cc2C(F)(F)F)CC1` has a remaining binding of 100% (binding, competition with immobilised ligand; 1 µM).
With `CC(C)=CC1OC(C)(C)C2C=C3C(=O)C(Cl)=CC(O)C3C3C(O)C4OC4C(=O)C132` (stereo not shown) the remaining binding was 99% (cell-free assay, competition with immobilised ligand; 10 µM).

Repeated from above:
With `C=CC(=O)N1CCCC(n2c(=O)c3ncccc3n(Cc3ccc(Oc4ccccc4)cc3)c2=O)C1` (stereo not shown) the remaining binding was 75% (cell-free assay, competition with immobilised ligand; 1 µM).
